Measured values from different studies.
Compare with care: the assays were run in different laboratories.
Sequence of UniProt P08183 (whole entry, looked up): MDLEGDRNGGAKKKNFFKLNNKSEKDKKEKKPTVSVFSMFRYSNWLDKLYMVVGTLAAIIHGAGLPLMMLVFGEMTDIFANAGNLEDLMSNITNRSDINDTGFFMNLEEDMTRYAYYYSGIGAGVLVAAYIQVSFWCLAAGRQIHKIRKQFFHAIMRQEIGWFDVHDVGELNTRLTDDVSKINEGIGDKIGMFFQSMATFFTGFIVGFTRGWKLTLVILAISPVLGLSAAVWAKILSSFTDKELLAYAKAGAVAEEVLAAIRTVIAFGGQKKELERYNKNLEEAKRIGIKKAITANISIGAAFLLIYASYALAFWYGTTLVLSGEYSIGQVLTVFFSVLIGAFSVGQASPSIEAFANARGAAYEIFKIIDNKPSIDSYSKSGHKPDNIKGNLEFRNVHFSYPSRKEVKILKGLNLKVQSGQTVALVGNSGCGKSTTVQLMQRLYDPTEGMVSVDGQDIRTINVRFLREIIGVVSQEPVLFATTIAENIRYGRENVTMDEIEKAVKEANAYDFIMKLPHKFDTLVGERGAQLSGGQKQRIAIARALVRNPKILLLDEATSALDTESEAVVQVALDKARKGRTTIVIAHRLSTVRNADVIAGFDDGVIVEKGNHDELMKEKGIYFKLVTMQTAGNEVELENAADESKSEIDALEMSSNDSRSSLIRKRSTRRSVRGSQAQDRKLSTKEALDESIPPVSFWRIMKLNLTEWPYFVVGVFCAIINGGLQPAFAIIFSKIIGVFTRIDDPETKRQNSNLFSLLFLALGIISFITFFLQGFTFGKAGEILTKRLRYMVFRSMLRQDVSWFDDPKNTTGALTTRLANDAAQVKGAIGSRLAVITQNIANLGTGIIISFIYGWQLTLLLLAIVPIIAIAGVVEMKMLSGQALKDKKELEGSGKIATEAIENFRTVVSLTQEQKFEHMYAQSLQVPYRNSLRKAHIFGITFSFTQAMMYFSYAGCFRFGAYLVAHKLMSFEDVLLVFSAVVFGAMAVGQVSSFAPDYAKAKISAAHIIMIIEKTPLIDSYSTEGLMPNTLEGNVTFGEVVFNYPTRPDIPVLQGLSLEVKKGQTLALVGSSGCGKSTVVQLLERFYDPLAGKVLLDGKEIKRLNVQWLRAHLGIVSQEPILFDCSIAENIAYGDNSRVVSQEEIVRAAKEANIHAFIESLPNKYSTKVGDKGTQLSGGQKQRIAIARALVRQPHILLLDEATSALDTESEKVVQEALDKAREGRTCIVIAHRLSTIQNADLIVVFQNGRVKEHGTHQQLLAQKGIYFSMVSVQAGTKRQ

| SMILES | tested on | assay | system | conditions | scale | endpoint | result |
| --- | --- | --- | --- | --- | --- | --- | --- |
| CC(=O)Oc1ccc2c3c1O[C@H]1[C@@H](OC(C)=O)C=C[C@H]4[C@@H](C2)N(C)CC[C@@]341 | – | – | rat, whole blood | 10 nM, 4 freeze-thaw cycles | – | stability bias | -4.17% |
| CN(C)CCCn1cc(-c2ccccc2)c(-c2ccccc2)n1 | African green monkey cells | – | – | 5 days | – | CC50 | 39.8 µM |
| CO[C@H]1C[C@@H]2CC[C@@H](C)[C@@](O)(O2)C(=O)C(=O)N2CCCC[C@H]2C(=O)O[C@H]([C@H](C)C[C@@H]2CC[C@@H](OC(=O)NCCOCCOCCOCCOCCOCCOCCOCCOCCC(=O)N3CCc4cc(Cn5nc(-c6ccc7oc(N)nc7c6)c6c(N)ncnc65)ccc4C3)[C@H](OC)C2)C[C@@H](O)[C@H](C)/C=C(\C)[C@@H](O)[C@@H](OC)C(=O)[C@H](C)C[C@H](C)/C=C/C=C/C=C/1C | – | phase 1 dose escalation, item: headache | advanced solid tumour patients | intravenous, 10 mg weekly, any grade | – | TRAE incidence | 12.5% |
| CN1CC[C@@H](c2c(O)cc(O)c3c(=O)cc(-c4ccc(C(F)(F)F)cc4Cl)oc23)[C@@H]1CO | – | item: Sepsis | AML | oral, 200 mg, intermittent dosing | – | patients with adverse event | 20% |
| O=C(O)CCc1nc(-c2ccccc2)c(-c2ccccc2)o1 | African green monkey cells | – | – | 5 days | – | CC50 | > 50.1 µM |
| COc1cc2c(Oc3ccc4[nH]c(C)cc4c3F)ccnc2cc1OCC1(N)CC1 | – | – | paediatric recurrent refractory sarcoma | 10 mg | – | grade 3 intestinal obstruction | 0% |
| CN1CC[C@]23c4c5ccc(O)c4O[C@H]2[C@@H](O[C@@H]2O[C@H](C(=O)O)[C@@H](O)[C@H](O)[C@H]2O)C=C[C@H]3[C@H]1C5 | – | – | rat, whole blood | 1000 nM, 4 freeze-thaw cycles | – | stability bias | 4.07% |
| Oc1cc2c(cc1O)[C@H]1c3ccccc3CN[C@@H]1CC2 (racemic) | African green monkey cells | – | – | 5 days | – | CC50 | 18.6 µM |
| Cc1cc(C(=O)NC(C)(C)COc2cccc3c2C(N)=NS(=O)(=O)N3)cc(C)n1 | Salmonella typhimurium | Ames test, initial | TA1535 | 50.0 µg/plate | baseline: solvent control | revertant ratio | 1.4 |
| O=C1c2c(O)c(=O)ccn2N([C@@H]2c3ccccc3SCc3c2ccc(F)c3F)[C@@H]2COCCN12 | – | – | BALB/c mice, plasma | oral, 1.5 mg/kg baloxavir marboxil, 10 h | – | plasma concentration | 1.95 ng/mL |
| CC(C)CC(=O)OC[C@H]1O[C@@](C#N)(c2ccc3c(N)ncnn23)[C@H](O)[C@@H]1O | ATP-dependent translocase ABCB1 (ABCB1, Homo sapiens, UniProt P08183) | basolateral to apical transport | Caco-2 | 9 µM, 2 h | – | recovery | 74.9% |
| COC(=O)[C@H]1[C@@H](OC(=O)c2ccccc2)C[C@@H]2CC[C@H]1N2C | – | – | rat, whole blood | 500 nM, 4 months, -80 °C, long-term storage | – | stability bias | 4.42% |
| C#C[C@]1(O)CC[C@H]2[C@@H]3CCC4=CCCC[C@@H]4[C@H]3CC[C@@]21C | African green monkey cells | – | – | 5 days | – | CC50 | 10.5 µM |

Some of these lines once more:
| SMILES | tested on | assay | system | conditions | scale | endpoint | result |
| --- | --- | --- | --- | --- | --- | --- | --- |
| CN1CC[C@@H](c2c(O)cc(O)c3c(=O)cc(-c4ccc(C(F)(F)F)cc4Cl)oc23)[C@@H]1CO | – | item: Sepsis | AML | oral, 200 mg, intermittent dosing | – | patients with adverse event | 20% |
